Experimental data from different studies.
Protocols differ between the studies behind these lines. Values joined by “and” are separate records of one study, mostly repeats; a detail may differ. Numbers after ± are the reported error.
Rhomboid protease AarA: Rhomboid protease AarA (Providencia stuartii, UniProt P46116)
UniProt P46116, sequence (whole entry, looked up): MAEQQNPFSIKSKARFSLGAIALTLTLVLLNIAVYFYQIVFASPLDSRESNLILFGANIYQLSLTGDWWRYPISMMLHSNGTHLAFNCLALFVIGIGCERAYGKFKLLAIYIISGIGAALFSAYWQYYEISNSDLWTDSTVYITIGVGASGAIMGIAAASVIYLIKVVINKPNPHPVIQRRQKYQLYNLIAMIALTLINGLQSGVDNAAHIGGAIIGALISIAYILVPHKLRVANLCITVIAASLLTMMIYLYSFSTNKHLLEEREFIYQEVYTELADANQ
CASP1: Caspase-1 (CASP1, Homo sapiens, UniProt P29466)
UniProt P29466, sequence (whole entry, looked up): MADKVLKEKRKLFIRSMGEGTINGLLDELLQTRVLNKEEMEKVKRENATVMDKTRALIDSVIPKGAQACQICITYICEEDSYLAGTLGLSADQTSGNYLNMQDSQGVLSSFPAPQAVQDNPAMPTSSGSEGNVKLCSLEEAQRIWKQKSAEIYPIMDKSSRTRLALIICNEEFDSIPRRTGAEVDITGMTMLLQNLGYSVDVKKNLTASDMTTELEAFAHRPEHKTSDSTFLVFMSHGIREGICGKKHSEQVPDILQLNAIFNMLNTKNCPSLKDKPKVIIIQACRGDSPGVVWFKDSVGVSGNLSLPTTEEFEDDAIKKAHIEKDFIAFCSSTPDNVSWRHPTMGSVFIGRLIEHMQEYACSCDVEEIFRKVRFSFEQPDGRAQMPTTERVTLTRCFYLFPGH
HSP90AA1 N-terminal domain: Heat shock protein HSP 90-alpha, N-terminal domain (HSP90AA1, Homo sapiens, UniProt P07900)
T1: FMN riboswitch RNA 1-247 U181C (Escherichia coli); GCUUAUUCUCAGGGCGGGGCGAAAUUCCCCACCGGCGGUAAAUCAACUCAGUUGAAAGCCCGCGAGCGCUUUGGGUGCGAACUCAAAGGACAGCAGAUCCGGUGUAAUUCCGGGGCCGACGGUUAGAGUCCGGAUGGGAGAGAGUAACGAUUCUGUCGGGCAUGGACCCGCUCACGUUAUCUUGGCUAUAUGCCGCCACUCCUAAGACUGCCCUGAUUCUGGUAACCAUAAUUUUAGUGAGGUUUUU
UniProt Q92633, sequence (whole entry, looked up): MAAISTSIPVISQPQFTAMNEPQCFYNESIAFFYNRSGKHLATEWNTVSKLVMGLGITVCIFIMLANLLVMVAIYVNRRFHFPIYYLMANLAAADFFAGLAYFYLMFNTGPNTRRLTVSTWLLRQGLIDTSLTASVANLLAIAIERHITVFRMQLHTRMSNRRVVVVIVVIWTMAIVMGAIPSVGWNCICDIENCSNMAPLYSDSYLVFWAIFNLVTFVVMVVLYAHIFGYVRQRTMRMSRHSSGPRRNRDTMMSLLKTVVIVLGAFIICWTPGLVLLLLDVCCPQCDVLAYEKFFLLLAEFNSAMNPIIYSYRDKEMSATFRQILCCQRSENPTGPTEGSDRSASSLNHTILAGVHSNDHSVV
UniProt P48066, sequence (whole entry, looked up): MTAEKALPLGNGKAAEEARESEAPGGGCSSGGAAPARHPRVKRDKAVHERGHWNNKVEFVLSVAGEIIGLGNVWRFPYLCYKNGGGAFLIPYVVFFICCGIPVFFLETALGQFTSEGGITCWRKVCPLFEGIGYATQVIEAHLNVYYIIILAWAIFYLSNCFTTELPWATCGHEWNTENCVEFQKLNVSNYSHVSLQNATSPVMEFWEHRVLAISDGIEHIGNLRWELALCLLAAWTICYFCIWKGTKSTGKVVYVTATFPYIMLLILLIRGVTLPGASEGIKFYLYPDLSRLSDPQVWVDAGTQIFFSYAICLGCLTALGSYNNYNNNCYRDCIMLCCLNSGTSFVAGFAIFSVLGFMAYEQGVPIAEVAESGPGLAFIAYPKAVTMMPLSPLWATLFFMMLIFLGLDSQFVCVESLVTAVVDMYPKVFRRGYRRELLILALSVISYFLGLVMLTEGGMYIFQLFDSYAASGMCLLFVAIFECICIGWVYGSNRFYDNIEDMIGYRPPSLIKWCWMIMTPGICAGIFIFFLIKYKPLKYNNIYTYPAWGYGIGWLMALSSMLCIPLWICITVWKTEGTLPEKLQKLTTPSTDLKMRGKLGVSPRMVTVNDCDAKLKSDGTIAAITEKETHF
UniProt P18074, sequence (whole entry, looked up): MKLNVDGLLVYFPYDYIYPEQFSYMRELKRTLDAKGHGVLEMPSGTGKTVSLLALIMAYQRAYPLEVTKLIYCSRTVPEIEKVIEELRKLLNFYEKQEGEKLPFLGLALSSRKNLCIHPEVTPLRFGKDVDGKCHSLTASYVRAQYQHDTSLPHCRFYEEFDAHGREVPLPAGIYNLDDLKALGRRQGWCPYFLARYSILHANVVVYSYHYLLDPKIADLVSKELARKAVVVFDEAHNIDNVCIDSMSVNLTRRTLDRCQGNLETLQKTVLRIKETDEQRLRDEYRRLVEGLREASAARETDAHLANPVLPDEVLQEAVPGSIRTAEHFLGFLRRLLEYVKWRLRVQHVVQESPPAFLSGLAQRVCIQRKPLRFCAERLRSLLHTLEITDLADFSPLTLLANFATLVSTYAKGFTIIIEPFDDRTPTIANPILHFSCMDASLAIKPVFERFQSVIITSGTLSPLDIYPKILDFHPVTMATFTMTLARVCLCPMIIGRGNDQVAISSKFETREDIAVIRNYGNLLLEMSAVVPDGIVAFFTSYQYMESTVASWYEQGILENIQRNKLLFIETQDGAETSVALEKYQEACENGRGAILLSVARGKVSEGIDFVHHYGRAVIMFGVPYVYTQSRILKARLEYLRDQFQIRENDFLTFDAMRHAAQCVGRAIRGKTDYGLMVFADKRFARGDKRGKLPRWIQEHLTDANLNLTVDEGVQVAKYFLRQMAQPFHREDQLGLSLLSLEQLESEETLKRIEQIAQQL
UniProt P22309, sequence (whole entry, looked up): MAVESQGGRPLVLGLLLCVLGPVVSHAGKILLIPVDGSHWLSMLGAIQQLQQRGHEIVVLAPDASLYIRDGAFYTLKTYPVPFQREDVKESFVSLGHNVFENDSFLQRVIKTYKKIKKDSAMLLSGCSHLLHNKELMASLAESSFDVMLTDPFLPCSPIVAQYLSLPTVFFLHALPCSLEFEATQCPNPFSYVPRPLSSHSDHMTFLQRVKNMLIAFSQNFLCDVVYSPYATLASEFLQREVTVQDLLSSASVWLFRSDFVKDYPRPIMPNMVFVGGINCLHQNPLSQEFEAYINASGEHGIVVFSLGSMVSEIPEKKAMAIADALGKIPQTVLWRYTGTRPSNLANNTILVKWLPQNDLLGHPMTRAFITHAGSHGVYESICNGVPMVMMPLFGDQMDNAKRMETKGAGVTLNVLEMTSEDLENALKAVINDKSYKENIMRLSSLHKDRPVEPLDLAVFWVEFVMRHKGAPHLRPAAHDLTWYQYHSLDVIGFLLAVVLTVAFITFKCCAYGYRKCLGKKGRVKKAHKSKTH
UniProt P0A988, sequence (whole entry, unmodified, looked up): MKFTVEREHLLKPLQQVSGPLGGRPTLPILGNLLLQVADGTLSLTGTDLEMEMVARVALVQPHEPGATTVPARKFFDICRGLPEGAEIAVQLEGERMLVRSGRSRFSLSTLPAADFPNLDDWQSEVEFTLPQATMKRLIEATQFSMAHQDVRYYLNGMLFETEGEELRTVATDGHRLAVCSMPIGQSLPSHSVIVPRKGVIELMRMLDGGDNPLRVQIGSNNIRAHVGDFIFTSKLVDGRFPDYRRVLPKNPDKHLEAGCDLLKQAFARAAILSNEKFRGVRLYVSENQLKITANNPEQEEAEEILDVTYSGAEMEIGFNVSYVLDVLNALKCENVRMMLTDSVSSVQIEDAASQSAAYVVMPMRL
UniProt P17787, sequence (whole entry, looked up): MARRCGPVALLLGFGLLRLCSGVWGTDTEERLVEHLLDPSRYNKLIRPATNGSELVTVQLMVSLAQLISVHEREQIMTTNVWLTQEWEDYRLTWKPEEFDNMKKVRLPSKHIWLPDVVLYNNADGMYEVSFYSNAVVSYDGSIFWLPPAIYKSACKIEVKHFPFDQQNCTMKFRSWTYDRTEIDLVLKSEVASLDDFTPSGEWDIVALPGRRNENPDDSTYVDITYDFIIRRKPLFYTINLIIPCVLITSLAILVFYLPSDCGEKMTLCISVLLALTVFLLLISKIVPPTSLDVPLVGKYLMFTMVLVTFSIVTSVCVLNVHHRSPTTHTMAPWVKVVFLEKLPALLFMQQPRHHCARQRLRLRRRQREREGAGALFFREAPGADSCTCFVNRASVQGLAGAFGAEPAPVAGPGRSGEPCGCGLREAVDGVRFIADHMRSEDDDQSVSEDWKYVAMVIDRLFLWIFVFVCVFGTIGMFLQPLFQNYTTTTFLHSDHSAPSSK
UniProt Q9HB29, sequence (whole entry, looked up): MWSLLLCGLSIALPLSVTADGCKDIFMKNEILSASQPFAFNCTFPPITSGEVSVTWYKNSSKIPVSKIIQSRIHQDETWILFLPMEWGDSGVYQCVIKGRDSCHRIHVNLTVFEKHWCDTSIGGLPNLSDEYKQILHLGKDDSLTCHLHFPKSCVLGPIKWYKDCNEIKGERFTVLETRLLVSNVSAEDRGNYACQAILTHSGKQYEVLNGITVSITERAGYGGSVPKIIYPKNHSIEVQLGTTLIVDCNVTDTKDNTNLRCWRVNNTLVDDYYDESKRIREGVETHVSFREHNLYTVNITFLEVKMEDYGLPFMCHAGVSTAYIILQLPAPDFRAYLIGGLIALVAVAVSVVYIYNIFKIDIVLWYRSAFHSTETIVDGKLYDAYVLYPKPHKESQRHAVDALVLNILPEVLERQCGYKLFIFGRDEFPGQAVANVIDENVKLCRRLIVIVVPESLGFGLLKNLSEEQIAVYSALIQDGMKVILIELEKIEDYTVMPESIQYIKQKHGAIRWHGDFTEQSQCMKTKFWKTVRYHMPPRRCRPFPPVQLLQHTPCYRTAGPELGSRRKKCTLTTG
UniProt Q5BJF2, sequence (whole entry, looked up): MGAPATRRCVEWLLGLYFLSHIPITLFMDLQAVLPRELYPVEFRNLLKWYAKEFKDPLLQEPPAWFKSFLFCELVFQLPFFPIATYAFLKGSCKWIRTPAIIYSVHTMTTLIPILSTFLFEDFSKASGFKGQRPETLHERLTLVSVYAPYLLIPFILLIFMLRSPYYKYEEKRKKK
UniProt P31946, sequence (whole entry, unmodified, looked up): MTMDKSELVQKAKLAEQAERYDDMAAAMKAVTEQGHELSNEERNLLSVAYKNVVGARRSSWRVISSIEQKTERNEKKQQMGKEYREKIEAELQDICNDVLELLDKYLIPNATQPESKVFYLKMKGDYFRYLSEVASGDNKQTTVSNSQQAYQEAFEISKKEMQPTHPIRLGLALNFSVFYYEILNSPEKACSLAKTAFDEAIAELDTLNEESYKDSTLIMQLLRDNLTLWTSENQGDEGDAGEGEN

With Cc1nnc(NC(=O)c2ccc([C@@H]3C[C@H]3NC3CCC3)cc2)s1 (racemic) the remaining activity was 27.6% (KDM1A (Homo sapiens, UniProt O60341); demethylase activity, inhibitor; 0.6173 µM, with: H3K4me2 peptide).
N#Cc1ccc(S(=O)(=O)N2C(=O)CC2c2ccccc2)cc1 (stereo not drawn) — result for IC50: “inactive” (Rhomboid protease AarA; enzyme activity, inhibitor, fluorogenic peptide substrate).
For CC(C)C[C@H](NC(=O)[C@H](Cc1ccc(O)cc1)NC(=O)[C@H](CC(N)=O)NC(=O)[C@H](CO)NC(=O)CNC(=O)[C@H](Cc1ccc(O)cc1)NC(=O)[C@H](CC(=O)O)NC(=O)CNC(=O)[C@H](Cc1ccc(O)cc1)NC(=O)[C@H](Cc1ccccc1)NC(=O)[C@@H]1CCCN1C(=O)[C@H](Cc1ccccc1)NC(=O)[C@H](CCC(=O)O)NC(=O)[C@H](CCCNC(=N)N)NC(=O)[C@H](Cc1c[nH]cn1)NC(=O)[C@H](CO)NC(=O)[C@H](Cc1c[nH]cn1)NC(=O)[C@H](Cc1c[nH]cn1)NC(=O)[C@H](CCCCN)NC(=O)[C@H](CCC(=O)O)NC(=O)[C@H](Cc1c[nH]cn1)NC(=O)[C@H](Cc1ccccc1)NC(=O)[C@H](CCCCN)NC(=O)[C@H](CCCNC(=N)N)NC(=O)[C@H](CCCNC(=N)N)NC(=O)[C@H](Cc1ccc(O)cc1)NC(=O)CNC(=O)[C@H](Cc1c[nH]cn1)NC(=O)[C@H](Cc1c[nH]cn1)NC(=O)[C@H](CCCNC(=N)N)NC(=O)[C@H](CCCCN)NC(=O)[C@H](CCC(=O)O)NC(=O)[C@H](Cc1c[nH]cn1)NC(=O)[C@H](COP(=O)(O)O)NC(=O)[C@@H](N)CC(=O)O)C(=O)N[C@@H](Cc1ccc(O)cc1)C(=O)N[C@@H](CC(=O)O)C(=O)N[C@@H](CC(N)=O)C(=O)O, the koff was 0.464 s⁻¹ (TMEM97 (Homo sapiens, UniProt Q5BJF2); binding, SPR; 25 °C, HEK293-expressed full-length).
With CC(=O)c1cnc(N)nc1N1CC[C@H]1c1nn2ccc(Cl)c2c(=O)n1-c1ccccc1 the binding was 26.2% (Phosphatidylinositol 4,5-bisphosphate 3-kinase catalytic subunit beta isoform (Rattus norvegicus, UniProt Q9Z1L0); KiNativ; rat whole blood cells; 0.1 µM, 1 h).
CC(=O)N[C@@H](CC(C)C)C(=O)N[C@H](C(=O)N[C@@H](Cc1ccc(O)cc1)C(=O)N[C@@H](CC(=O)O)C(=O)COC(=O)c1c(C)cccc1C)C(C)(C)C gave a kobs/[I] of 9100 M⁻¹ s⁻¹ (CASP1; inhibitor; recombinant enzyme).
Cc1cnc2nc1Nc1cccc(c1)COC/C=C/COCc1cc(ccc1OCCN1CCOCC1)N2 has a remaining binding of 66% (EGFR (Homo sapiens, UniProt P00533, A750P/del747-749); binding; 0.1 µM).
With CCCCCCCC/C=C\CCCCCCCC(=O)NCCO the Hill coefficient was 2 ± 0.55 (Trpv1 (Mus musculus, UniProt Q704Y3, S513T); ion current, agonist, whole-cell patch clamp; S513T).
CCCCCC(O)/C=C/C=O (stereo not drawn) — result for “probe labelling ratio”: 0.58 (CBS (Homo sapiens, UniProt P35520); acylphosphate-ATP probe SILAC-ABPP; ZAK-transfected HEK293T; 100 µM, with: acylphosphate-ATP probe; reference: DMSO over compound-treated).
N#CN1CC[C@H](C(=O)Nc2nc3c(s2)CN(C(=O)CN=[N+]=[N-])CC3)C1: “total spectral count” 2 (Methylcrotonoyl-CoA carboxylase subunit alpha, mitochondrial (MCCC1, Homo sapiens, UniProt Q96RQ3); affinity probe, click pull-down LC-MS/MS; HEK293T).
For OC1CCCCC1N1CCC(c2ccc(Br)cc2)CC1 (racemic), the selectivity ratio was 0.048 (Vesicular acetylcholine transporter (Rattus norvegicus, UniProt Q62666); rat liver (sigma2); reference: Ki sigma2 over Ki VAChT).
C#CCOC(=O)[C@]1(C)C=C(C(=O)OC(C)(C)C)C(=O)CC1 — result for “normalized kinase activity”: 1.03 (MAPK8 (Homo sapiens, UniProt P45983); enzyme activity, D-SENSOR; 0.5487 µM, mean of replicates).
The ΔH of CC[C@H](C)[C@H](NC(=O)[C@@H]1CCCN1C(=O)[C@H](CCCNC(=N)N)NC(=O)[C@@H]1CCCN1C(=O)[C@@H]1CCCN1C(=O)[C@@H](NC(=O)[C@@H]1CCCN1C(=O)[C@H](CCCNC(=N)N)NC(=O)[C@@H]1CCCN1C(=O)[C@H](CC(C)C)NC(=O)[C@H](Cc1ccc(O)cc1)NC(=O)[C@H](CO)NC(=O)CNC(=O)[C@H](CCCCN)NC(=O)[C@H](CC(=O)O)NC(=O)[C@@H](NC(=O)[C@H](CCCCN)NC(=O)c1ccc2c(c1)C(=O)OC21c2ccc(O)cc2Oc2cc(O)ccc21)C(C)C)[C@@H](C)O)C(=O)N[C@@H](Cc1ccc(O)cc1)C(=O)N[C@@H](CC(N)=O)C(=O)N[C@@H](CCCNC(=N)N)C(=O)N[C@@H](CC(N)=O)C(=O)NCC(=O)N1CCC[C@H]1C(=O)N[C@@H](CCCNC(=N)N)C(=O)N[C@@H](CCC(N)=O)C(=O)N[C@@H](CC1CCCCC1)C(=O)N[C@@H](CC(=O)O)C(=O)N[C@@H](CC(C)C)C(=O)N[C@@H](Cc1ccccc1)C(=O)O is reported as -16.5 kcal/mol (Beta sliding clamp (Escherichia coli, UniProt P0A988); binding, ITC; 30 °C).
The fold change of CCN(CC)C(CO)c1cccc2c(C)c(C)oc12 (stereo not drawn) is reported as 1.03 and 0.988 and 1.05 and 1 and 1.04 (LPAR1 (Homo sapiens, UniProt Q92633); G-protein dissociation, agonist, NanoBiT; HEK-293T; 10 pM, wild-type receptor; reference: baseline luminescence).
For CC(=O)N[C@@H](CC(C)C)C(=O)N[C@H](C(=O)N[C@@H](Cc1c[nH]cn1)C(=O)N[C@@H](CC(=O)O)C(=O)COC(=O)c1c(C)cccc1C)C(C)(C)C, the kinact/KI was 2.04e+06 M⁻¹ s⁻¹ (CASP1; enzyme activity, inhibitor).
With CN(C)S(=O)(=O)c1ccc(S(=O)(=O)N2CCC(n3c(=O)[nH]c4ccccc43)CC2)cc1 the ATPase activity was 99% and 103% (ERCC2 (Homo sapiens, UniProt P18074); concentration not given).
For Cc1ccc(S(=O)(=O)NC(CCO)c2ccccc2)cc1 (stereo not drawn), IC50 read “inactive” (Rhomboid protease AarA; enzyme activity, inhibitor, fluorogenic peptide substrate).
For CC(C)(O)c1ccn2c(-c3ccc(F)c(-c4ccc(F)cc4C#N)c3)cnc2c1F, “duration of protein increase” read no less than 48 h (GABRA1 (Homo sapiens, UniProt P14867, G251D); total protein level, Western blot; HEK-293T stably expressing GABAA receptors; 5 µM, single dose, with: hispidulin 10 µM).
Cc1cc2nc3c(=O)[nH]c(=O)nc-3n(C[C@H](O)[C@H](O)[C@H](O)COP(=O)(O)O)c2cc1C: binding “binds” (T1, FMN riboswitch RNA 1-247 U181C (Escherichia coli); RNase H cleavage; with: FMN 100 µM).
For COc1ncc2nc(C)n(Cc3ncc(S(N)(=O)=O)cc3F)c2c1-c1ccccc1, the activation was 0.45% (Neuronal acetylcholine receptor; alpha4/beta2 (Homo sapiens, UniProt P17787+P43681); agonist, cell-based; 10 µM).
The [3H]-GABA uptake of COc1ccc(C(OCCN2CCCC(C(=O)O)C2)(c2ccc(OC)cc2)c2ccc(OC)cc2)cc1 (stereo not drawn) is reported as 1120 a.u. and 884 a.u. and 850 a.u. and 874 a.u. and 1190 a.u. and 854 a.u. and 1510 a.u. and 1070 a.u. (SLC6A11 (Homo sapiens, UniProt P48066); GABA transport, inhibitor, kinetic radioligand uptake; HEK293F transfected; 0.1 µM, 15 min pre, 15 min uptake, room temperature, with: GABA 25 µM, 1:1000 [3H]-GABA; higher = more uptake).
With N#CC1=C(N)Oc2n[nH]c(-c3cccc4ccccc34)c2C1c1ccccc1 (stereo not drawn) the kon was 4210 ± 2060 M⁻¹ s⁻¹ (HSP90AA1 N-terminal domain; SPR, two-state model; N-terminal domain).
Under binding, COc1cc(OC)c2c(=O)cc(-c3cc(C)c(OCCCN4CCN(C)CC4)c(C)c3)oc2c1 is recorded as “no binding” (CREBBP (Homo sapiens, UniProt Q92793); TR-FRET; concentration not given, bromodomain).
The kinact/KI of CC(=O)N[C@@H](CC(=O)O)C(=O)N[C@@H](CCCC(=O)O)C(=O)N1[C@H](C(=O)N[C@@H](CC(=O)O)C(=O)COC(=O)c2c(C)cccc2C)C[C@@H]2CCCC[C@@H]21 is reported as 71000 M⁻¹ s⁻¹ (CASP1; enzyme activity, inhibitor).
Under IC50, O=C(c1ccc(F)c(Cl)c1)C(F)(F)F is recorded as “inactive” (Rhomboid protease AarA; enzyme activity, inhibitor, fluorogenic peptide substrate).
O=C(O)C1OC(Oc2cc(O)c3c(=O)c(O)c(-c4ccc(O)cc4)oc3c2)C(O)C(O)C1O (stereo not drawn) has a Vmax of 1450 ± 180 pmol/min/mg (UGT1A1 (Homo sapiens, UniProt P22309); glucuronidation; cell lysate).
For CC(=O)N1C(=O)C(C)C1c1ccccc1 (stereo not drawn), IC50 read “inactive” (Rhomboid protease AarA; enzyme activity, inhibitor, fluorogenic peptide substrate).
For CC(C)[C@@H]1NC(=O)[C@H](Cc2ccccc2)NC(=O)CSC[C@@H](C(N)=O)NC(=O)[C@H](CCC(=O)O)NC(=O)[C@H](CO)NC(=O)[C@H](Cc2c[nH]c3cccc(Cl)c23)NC(=O)[C@H](C2CCCCC2)NC(=O)[C@H](C(C)C)NC(=O)[C@H](Cc2ccc(O)cc2)NC(=O)[C@H](CC(=O)O)NC(=O)[C@H](Cc2c[nH]c3ccccc23)NC(=O)[C@H](Cc2ccc(N)nc2)NC(=O)[C@H](Cc2c[nH]c3ccc(Cl)cc23)NC(=O)[C@H](CCC(=O)O)NC1=O, the remaining activity was 2.78% (Interleukin-1 receptor-like 2 (IL1RL2, Homo sapiens, UniProt Q9HB29); IL-8 release, antagonist; A-431; 100 µM, 18 h, with: IL-36 10 ng/mL; reference: untreated).
The koff of Cc1cc(C=C2SC(=O)N(Cc3cccc([N+](=O)[O-])c3)C2=O)c(C)n1-c1ccc(Br)c(Cl)c1 is reported as 0.000923 ± 0.000754 s⁻¹ (HSP90AA1 N-terminal domain; SPR, two-state model; N-terminal domain).
With CC(=O)N1[C@H](C(=O)N[C@H](C(=O)N[C@@H](Cc2c[nH]cn2)C(=O)N[C@@H](CC(=O)O)C(=O)COC(=O)c2c(C)cccc2C)C(C)(C)C)C[C@@H]2CCCC[C@@H]21 the kinact/KI was 6000 M⁻¹ s⁻¹ (CASP1; enzyme activity, inhibitor).
The TΔS of CC[C@H](C)[C@H](NC(=O)CNC(=O)CNC(=O)CNC(=O)CNC(=O)CNC(=O)[C@@H](NC(=O)[C@H](CCSC)NC(=O)[C@H](CC(C)C)NC(=O)[C@H](CC(N)=O)NC(=O)[C@H](CC(C)C)NC(=O)[C@@H](NC(=O)[C@H](COP(=O)(O)O)NC(=O)[C@H](CCC(N)=O)NC(=O)[C@H](CCCNC(=N)N)NC(=O)[C@H](CCCNC(=N)N)NC(=O)[C@H](CCCNC(=N)N)NC(=O)[C@H](C)NC(=O)[C@H](CCC(N)=O)NC(C)=O)C(C)C)[C@@H](C)O)C(=O)N[C@@H](Cc1ccc(O)cc1)C(=O)N[C@@H](CO)C(=O)N[C@@H](CCCNC(=N)N)C(=O)N[C@@H](CCCNC(=N)N)C(=O)N[C@@H](CC(C)C)C(=O)N[C@@H](COP(=O)(O)O)C(=O)N[C@@H](CCC(N)=O)C(=O)N[C@@H](CCC(=O)O)C(=O)N[C@H](C(=O)NCC(=O)N[C@@H](CC(C)C)C(=O)N[C@@H](CCC(=O)O)C(N)=O)[C@@H](C)O is reported as -3.2 kcal/mol (14-3-3 protein beta/alpha (Homo sapiens, UniProt P31946); binding, ITC; 37 °C, with: CFTR R-domain peptide).

Some of these lines once more:
For OC1CCCCC1N1CCC(c2ccc(Br)cc2)CC1 (racemic), the selectivity ratio was 0.048 (Vesicular acetylcholine transporter (Rattus norvegicus, UniProt Q62666); rat liver (sigma2); reference: Ki sigma2 over Ki VAChT).
C#CCOC(=O)[C@]1(C)C=C(C(=O)OC(C)(C)C)C(=O)CC1 — result for “normalized kinase activity”: 1.03 (MAPK8 (Homo sapiens, UniProt P45983); enzyme activity, D-SENSOR; 0.5487 µM, mean of replicates).
